Published values of several laboratories.
Lines come from different studies, so protocols differ. ± marks the error that the study gave.

With `COc1cc(CNC(=O)C[C@H](C)CCC=C(C)C)ccc1OCc1cn(-c2ccc(F)cc2)nn1` the growth percent was 64.4% (SF-295 CNS cancer cells; SRB; 10 µM, 48 h).
For `CC(=O)OC[C@H]1O[C@@H](Sc2sc(C(=O)c3ccc(C)cc3)c(N)c2-c2nc3ccccc3s2)[C@H](OC(C)=O)[C@@H](OC(C)=O)[C@@H]1OC(C)=O`, the growth was 92.2% (HCC 2998; SRB; 10 µM, 48 h; reference: untreated).
`COc1cc(CNC(=O)C[C@H](C)CCC=C(C)C)ccc1OCc1cn(-c2cccc([N+](=O)[O-])c2)nn1` gave a growth percent of 98.4% (OVCAR-3 ovarian cancer cells; SRB; 10 µM, 48 h).
`CC(=NN=c1sc(C(=O)c2ccccc2)nn1-c1ccccc1)c1ccc(S(=O)(=O)N2CCC(C)CC2)cc1` — result for “apoptotic cells early”: 6.38% (HepG2; annexin V/PI staining; IC50, 72 h).
The glucose consumption of `COc1cc([C@@H]2OC[C@@H]3[C@H]2CO[C@H]3c2cc(OC)c(O)c(OC)c2)cc(OC)c1O` is reported as 6.47 ± 0.17 mM (HepG2, palmitic acid-induced insulin resistance; 2.5 µM, 24 h).
`C(=C/c1ccccc1)/c1ccccc1`: “lowest effective concentration” 2 µM (HL-60; cell proliferation, CellTiter-Glo; 24 h, lowest dose with significant inhibition; reference: vehicle).
`Cc1ccc(-c2cn([C@H]3C[C@H](O)[C@@H](CO)O3)c3ncnc(N)c23)cc1Cl` has an EC50 of 112 ± 11 µM (HEK; cytotoxicity).
The growth percent of `COc1cc(CNC(=O)C[C@H](C)CCC=C(C)C)ccc1OCc1cn(-c2ccccc2[N+](=O)[O-])nn1` is reported as 106% (HCC 2998; SRB; 10 µM, 48 h).
`O=C(Nc1ccccc1)c1ccc(Nc2nnc(-c3ccc(O)cc3)c3ccccc23)cc1`: anandamide uptake “inhibited” (wild-type mouse cortical neurons; inhibitor; 10 µM, together with: [3H]-anandamide).
With `COc1cc(CNC(=O)C[C@H](C)CCC=C(C)C)ccc1OCc1cn(-c2ccc(Br)cc2)nn1` the growth percent was 105% (OVCAR-3 ovarian cancer cells; SRB; 10 µM, 48 h).
The apoptotic cells of `CC(=O)O[C@H]1CC[C@]2(C)[C@H]3C(=O)C=C4[C@@H]5C[C@@](C)(C(=O)OCc6ccccc6)CC[C@]5(C)CC[C@@]4(C)[C@]3(C)CC[C@H]2C1(C)C` is reported as 11.7% (HepG2; annexin V/7-AAD flow cytometry; 4 µM, 24 h).
For `CCC(=C(c1ccc(Cl)cc1)c1ccc(OCCCN(C)C)cc1)c1ccccc1`, the growth inhibition was 5.02% (NCI-60 tumour cell lines; 10 µM, mean over cell lines).
`CC[C@H](C)[C@H](NC(=O)[C@@H](NC(=O)[C@@H](N)C(C)C)C(C)C)C(=O)N[C@@H](C)C(N)=O` gave a viability of 86.4% (PC-12; Aβ42-induced neurotoxicity, inhibitor, MTT; concentration not given, 6 h, 37 °C, peptide to Aβ42 1:1, together with: Aβ42 2 µM; reference: untreated cells).
With `COc1cc(CNC(=O)C[C@H](C)CCC=C(C)C)ccc1OCc1cn(-c2ccccc2Cl)nn1` the growth percent was 28.5% (MDA-MB-468 breast cancer cells; SRB; 10 µM, 48 h).
For `COc1ccc(NC(=O)COc2ccc(/C=C/C(C)=N/O)cc2OC)cc1`, “ROS positive cells” read 5.53% (SH-SY5Y; DCFDA flow cytometry; 40 µM, together with: amyloid beta 10 µM).
The selectivity index of `CC(=O)Oc1ccccc1C(=O)[O][Pt]([NH2])([NH2])([Cl])([Cl])[O]C(=O)CCCc1ccccc1` is reported as 2 (HEK293 and LoVo; cytotoxicity, MTT; reference: IC50 HEK293 over IC50 LoVo).
The growth inhibition of `CCC(=C(c1ccc(Cl)cc1)c1ccc(OCCN(C)C)cc1)c1ccc(Cl)cc1` is reported as 35.2% (NCI-60 tumour cell lines; 10 µM, mean over cell lines).
With `COc1cc(CNC(=O)C[C@H](C)CCC=C(C)C)ccc1OCc1cn(-c2ccc([N+](=O)[O-])cc2)nn1` the growth percent was 41.4% (MDA-MB-468 breast cancer cells; SRB; 10 µM, 48 h).
Under α-tubulin acetylation, `COCCn1cc(COc2cccc(Cc3cnc(NC(=O)CSc4nc(C)cc(C)n4)s3)c2)nn1` is recorded as “increased” (PC-3M-luc; immunofluorescence; 20 µM, 5 h).
`[Cl][Pt-]1([Cl])[S]C(Nc2ccccc2)=N[N+]1=Cc1cccs1` has a cytotoxic concentration of no less than 20 µM (HEL human lung fibroblasts; altered cell morphology, microscopy; confluent cultures).

A few entries again:
For `CCC(=C(c1ccc(Cl)cc1)c1ccc(OCCCN(C)C)cc1)c1ccccc1`, the growth inhibition was 5.02% (NCI-60 tumour cell lines; 10 µM, mean over cell lines).
`CC[C@H](C)[C@H](NC(=O)[C@@H](NC(=O)[C@@H](N)C(C)C)C(C)C)C(=O)N[C@@H](C)C(N)=O` gave a viability of 86.4% (PC-12; Aβ42-induced neurotoxicity, inhibitor, MTT; concentration not given, 6 h, 37 °C, peptide to Aβ42 1:1, together with: Aβ42 2 µM; reference: untreated cells).
With `COc1cc(CNC(=O)C[C@H](C)CCC=C(C)C)ccc1OCc1cn(-c2ccccc2Cl)nn1` the growth percent was 28.5% (MDA-MB-468 breast cancer cells; SRB; 10 µM, 48 h).
